Measured values collected from several papers.
Each line is one published result; not all experiments were run side by side.

C=CC(=O)Nc1cc(Nc2nccc(Nc3cc(Cl)c(F)cc3C(C)(C)O)n2)c(OC)cc1N1CC[C@@H](N(C)C)C1 — patients with fatigue (human patients; oral, 300 mg, treatment-emergent adverse events): 21.6%
CN(C)C(=O)c1cc2cnc(Nc3ccc(N4CCNCC4)cn3)nc2n1C1CCCC1 — patients with adverse event (refers to: Leukopenia, AESI; human, HR+/HER2− advanced breast cancer; oral, dose not given, all grades, CTCAE v4.03): 35.5%
C[C@]1(O)C[C@@](N)(c2ccc(-c3nc4n(c3-c3ccccc3)COc3ccncc3-4)cc2)C1 — patients with grade ≥3 Rash TEAE (human, advanced or metastatic solid tumours; dose not given, all patients): 17.6%
CN[C@@H](C)C(=O)N[C@H]1CN(S(=O)(=O)c2cccc(S(=O)(=O)N3CC[C@H]4CC[C@@H](C(=O)NC(c5ccccc5)c5ccccc5)N4C(=O)[C@@H](NC(=O)[C@H](C)NC)C3)c2)CC[C@H]2CC[C@@H](C(=O)NC(c3ccccc3)c3ccccc3)N2C1=O — patients with treatment-related asthenia (human, advanced solid tumours; 0.3 mg): 0%
N[C@@H]1c2ccccc2OC12CCN(c1cnc3c(N4CCCc5ncccc54)n[nH]c3n1)CC2 — patients with treatment-related adverse event (refers to: Constipation; human advanced or metastatic solid tumours; oral, 60 mg once daily, phase Ia pooled cohort): 8%
Cn1cncc1-c1c(F)cncc1NC(=O)c1c(N)nn2cc(F)cnc12 — patients with anaemia DLT (human patients; oral, 180 mg once daily, 21 days, 2 weeks on 1 week off): 0%
C[C@@H]1OC(=O)NN=C1c1ccc(-c2ccc(F)cc2)c(C(F)(F)F)c1 — patients with adverse event (phase I trial, refers to: Pneumonitis all grades; human patients; 5 mg loading then 0.25 mg daily): 0%
Cc1cn([C@H]2O[C@@H](CO[P@@](=O)(N[C@@H](C)C(=O)OC(C)C)Oc3ccccc3)[C@H](O)[C@H]2F)c(=O)[nH]c1=O — patients with TEAE (refers to: Headache; human; 10 mg): 0%
O=C1Nc2cc3[nH]nc(-c4ccncc4)c3cc2CN1Cc1ccccc1 — patients with subretinal fluid (CTCAE v4.03; human, relapsed or refractory advanced solid tumours; intravenous, 4.8 mg/kg, pooled schedules): 25%
Cn1nc(NS(C)(=O)=O)c2c(Cl)ccc(-n3c([C@H](Cc4cc(F)cc(F)c4)NC(=O)Cn4nc(C(F)F)c5c4C(F)(F)[C@@H]4C[C@H]54)nc4nc(OCCC(F)(F)F)ccc4c3=O)c21 — patients with laboratory abnormality (refers to: LDL cholesterol grade 1 increase; human; 400 mg once daily, powder in bottle): 0%
COc1ncnn2ccc(-c3cnc4nc(C)n(Cc5nnc([C@@H](C)F)o5)c4c3)c12 — patients with any adverse reaction (human; oral, dose not given, grade 2): 50%
COc1ccc(-c2c(-c3ccc(C#N)c(F)c3)nc(N3CCC(N)CC3)n(C)c2=O)cc1F — patients with serious TEAE (refers to: hepatic hemorrhage; human patients; oral, 60 mg, dose expansion): 5%
CNC(=O)c1cc(Oc2ccc(NC(=O)Nc3cc(C(C)(C)C)nn3-c3ccc4ncccc4c3)c(F)c2)ccn1 — patients with related serious Pancreatitis AE (human, trial; oral, dose not given, all doses): 2%
